Measurements gathered from unrelated publications.
Each numbered part is a random draw from the data of one study; scales do not carry over between parts.

Study 1 — method: RNA Bind-n-Seq; molecule type: RNA; medium: in vitro; concentration: 365 nM; relative to: no-protein control; direction: higher = stronger binding
Target: RNA binding protein fox-1 homolog 2, RRM domain, GST-SBP tag (RBFOX2, Homo sapiens, UniProt O43251-10, residues 100-194)
Notes: natural RNA segment, single round, ends assumed
Construct (chain): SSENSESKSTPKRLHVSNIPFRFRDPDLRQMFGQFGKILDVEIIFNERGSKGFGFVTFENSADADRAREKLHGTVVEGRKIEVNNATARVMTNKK
Sequence | RBNS enrichment (R)
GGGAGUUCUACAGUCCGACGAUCGUUCAGUCUCAUCUAACCUUCCAAUGUCUGAUGUUCCUGCCAAAUUCCUGCCUGAUUCUGGGUCCGUCCUGACCUCCAAAGGUCAGCUUGGUGCUUGAGGUCUCCCUGCUUGGAAUUCUCGGGUGCCAA | 0.339
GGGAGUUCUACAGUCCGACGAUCGAUCCAAGGCUGUUGGGCCUCUCAAGAUUUGAGAACCACAAAGCAGGAGGUGAGCAUAUUCUCUUGGUGCAGCUCCCAGCUUCAGACCUGCUGAGGGACCCUUCAACUGGUGGAAUUCUCGGGUGCCAA | 0.526
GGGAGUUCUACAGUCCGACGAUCAACUCUUCAAAAAUGGUCACAGAAUGCCUUUUAAAAUACUGUAUAUAGUCUUCACUGCUUCACCUUGUUAAGUCAGAUAUUUAUGAUAAUGAAGUACGGAACUGGGAACUUGGAAUUCUCGGGUGCCAA | 0.777
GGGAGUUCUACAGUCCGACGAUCAGGUGACUGCCAAAUAAUAUUUGAAGUCAUCUGUCUCUUUGUAAAUUAUUUUAUAUGACCUAUAAAUUUAAAAAUGUUUUUCAGUGAGUGCUUUUAACAAACUUAAGCUUUGGAAUUCUCGGGUGCCAA | 1.02
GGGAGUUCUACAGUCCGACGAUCCUCCUCCCACCCGGCUGCAGAGGCCAGAGGCCCCCAGCCCAGGGCUCCUGCACUUACUUGCUUAUUUGACAACGUUUCAGCGACUCCGUUGGCCACUCCGAGAGGUGGGCUGGAAUUCUCGGGUGCCAA | 0.522
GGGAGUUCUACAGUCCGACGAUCCUAUUUCACUGAGUCUGGAUAAGGUUUCAGAGUUCAAAUGCUUGACGUUGGCACUUAACAUGAAAGCCUAUAGGUCAUUCUUGCUCUGGGAUCUACAGGCAGGGUAGGCAUGGAAUUCUCGGGUGCCAA | 0.978
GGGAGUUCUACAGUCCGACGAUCUGUUAAACUGGUCUUUGAGAAAAGAAUAGUGCAGAUAAGAGCAGCCAAGGACUUCAAAGCUUGUUGAUCACUGCACUCUGGAUAAAACCCUUGGCUUCCUGUUCAAAUAGUGGAAUUCUCGGGUGCCAA | 0.692
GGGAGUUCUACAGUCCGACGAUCAGAUACCUGCCAGCACUUCUGCAAGCUGAAAUUUACAGAAGCAAAUUCACCAGAAGGGAAACAUCUCAGGCCAACAUAGGCAAAUGAAAAGGGCUAUUAAAAUAUUUUUAUGGAAUUCUCGGGUGCCAA | 0.464
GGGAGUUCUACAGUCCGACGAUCCUGUUGAACAGAUGUCUCCUGUGUGAUGCCCCUGACUCUUACAUUUAUCUUUCUAAAUCAUUUUCUGAAGCUGACUUGCUCUAGGGUGCUUCAUCACCACUUCCAUCUUGUGGAAUUCUCGGGUGCCAA | 0.321
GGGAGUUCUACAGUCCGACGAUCCCAGAAUACACUGGACACCAAGGCCAAGGACGUUCACGUUCUGCCCUCGCUGGGUCCAGCUGACUCUAGCGUCUGCACAGCCUUGUGUGACUCGUGGUGACCUAACCUGAUGGAAUUCUCGGGUGCCAA | 0.214
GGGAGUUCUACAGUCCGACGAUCAGUGUAUAACAUGAAGAUAACAUUUUGUCUUUGACCACUGUCUUUUGAAUGGGCCCACAGUGUUUAUGUACUCUUAACAACUCACAGAAUAAUACAUGUUCACUUUAUUUUGGAAUUCUCGGGUGCCAA | 0.439
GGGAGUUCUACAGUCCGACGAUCUAGAGCAGUGCUAGCUAGCAUUACUGGCUUCCUGCUACUUUUUCGUUUUUUUAAAUUUUUUAUUCUGAUUGCUGUAUUAUAUUGGGGAUGUUCUAAACAACCAAACUAAAUGGAAUUCUCGGGUGCCAA | 0.582

Study 2 — method: protein-binding microarray; molecule type: double-stranded DNA, one strand shown; medium: in vitro; concentration: 2200 nM top; notes: 60-bp whole probe; added: salmon DNA 0.4 mg/ml; relative to: random background probes; direction: higher = stronger binding; shared flanks, not repeated: GCCTAGCAC … GTCTTGATTCGCTTGACGCTGCTG
Target: Interferon regulatory factor 7, full length, phosphomimetic (IRF7, Homo sapiens, UniProt Q92985, residues 1-503, S471D/S472D/S475D/S476D/S477D/S483D/S484D/S487D)
Target sequence (chain): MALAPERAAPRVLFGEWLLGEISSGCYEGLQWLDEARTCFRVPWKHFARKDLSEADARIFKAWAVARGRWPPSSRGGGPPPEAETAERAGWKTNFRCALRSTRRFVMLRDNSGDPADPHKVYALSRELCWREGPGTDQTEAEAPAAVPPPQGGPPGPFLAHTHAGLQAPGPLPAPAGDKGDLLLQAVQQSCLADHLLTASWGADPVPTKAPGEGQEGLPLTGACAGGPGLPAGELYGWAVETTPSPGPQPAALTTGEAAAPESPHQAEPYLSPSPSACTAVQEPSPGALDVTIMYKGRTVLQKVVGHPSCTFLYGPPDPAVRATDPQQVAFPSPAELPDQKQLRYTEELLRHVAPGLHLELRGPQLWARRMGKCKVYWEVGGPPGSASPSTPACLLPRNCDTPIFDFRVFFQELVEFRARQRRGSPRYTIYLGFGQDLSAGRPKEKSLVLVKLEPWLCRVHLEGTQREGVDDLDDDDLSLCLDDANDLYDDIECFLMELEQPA
Sequence | fitted relative affinity [z-score]
GACGGACTGGTTCTCGGGACGTGCTAG | -0.585
GACGGTCCCGGTTTCGGGACGTGCTAG | 2.98
GACGATATCGGGTTTCGAGCCGTGCTA | 1.06
TCATCCTCCTCTCTCTTACTGTGCTAG | 2.39
GACGGACTGGGGAGTGGGGACGTGCTA | -0.786
GACGGACTGCATATCCTGACGTGCTAG | 0.189
GACGGTTTCGGGAATCGGGACGTGCTA | 2.9
TTAGGTATCGGGTATCAGTTAGTGCTA | 0.513
GACGGTATCGACGTTCGGGACGTGCTA | -0.185
TCAGCTCCCTTTCTCTCACTGTGCTAG | 1.46
TCAGTGCTCATCTGTCATACTGTGCTA | 0.496
ACCGCATTCGAATTCAGAATGTGCTAG | 2.47
GACGATCTCCGTTTCGAGACGTGCTAG | 2.43
TTCGGACTGGGTCTCGGTTAGTGCTAG | 0.0888
TCAGTTTCCCCTATTTAACTGTGCTAG | 3.45
GATGAACTGGGGTTTCGAGACGTGCTA | 1.11
TTAGGTCTCCTTCTCCTTAAGTGCTAG | 1.16
GACGGACTTCTTATCCTGACGTGCTAG | 0.51
TTAGGTATCCTACAGCTTTAGTGCTAG | 0.263
TCAGGTTTCAGATGCGTACTGTGCTAG | 1.61
GACGGACTGGGACTCGGGACGTGCTAG | -0.672
TTAGATATCAGTATCGAATAGTGCTAG | -0.12
TCACTCCTATCTTATGATACTGTGCTA | 1.6
GTGTATATATAATATATATTCGTGCTA | 0.904
GACGATTTCAGTTTCGTGACGTGCTAG | 4.48

Study 3 — method: RNA Bind-n-Seq; molecule type: RNA; medium: in vitro; concentration: not given; relative to: input RNA pool; direction: higher = stronger binding
Target: RING finger protein unkempt homolog, zinc fingers 1-6, GST-SBP tag (UNK, Homo sapiens, UniProt Q9C0B0, residues 30-357)
Sequence of UniProt Q9C0B0 (30-357, looked up): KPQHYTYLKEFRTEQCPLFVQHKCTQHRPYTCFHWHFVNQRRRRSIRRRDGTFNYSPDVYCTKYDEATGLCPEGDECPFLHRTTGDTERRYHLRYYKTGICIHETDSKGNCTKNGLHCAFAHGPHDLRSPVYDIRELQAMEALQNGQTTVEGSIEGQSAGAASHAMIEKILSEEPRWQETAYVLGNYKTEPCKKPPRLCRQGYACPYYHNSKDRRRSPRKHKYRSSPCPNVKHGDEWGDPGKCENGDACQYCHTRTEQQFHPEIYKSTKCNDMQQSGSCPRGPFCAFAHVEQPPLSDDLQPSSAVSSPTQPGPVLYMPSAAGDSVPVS
Notes: RNA with constant flanks, human-mouse chimeric sites, ends assumed
Sequence | bound/input enrichment [ratio]
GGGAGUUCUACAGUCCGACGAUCGAUCAUGAACCACCAUCAGAAAUGAAGGAUGAGACUACCAGACGAGCCAAAACAGCUGCGCUACAGAAAAAGUAAACUAACCUUGCAGAGUUCCUUAAUGAAGAUACAAGUUAAGAGAGCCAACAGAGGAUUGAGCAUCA | 0.225
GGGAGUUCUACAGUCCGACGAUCCAGUCCCCGUGUCCCAGGGGACAAUGUUGUGAACAAAAACUCAAAGCGGACCCUCUAUUGUAGUUCUUGAUUCUCGAGUGCCAUUAUUAUUGUUUGUCUUUUUUUUUUUUUUUUUAAAGACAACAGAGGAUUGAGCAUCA | 1.6
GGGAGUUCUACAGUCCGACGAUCAAAGCCCAAGUAUUUUGAAAAAACUCGAACAGAUUUGACAAGGGUAGCCAGCUUGGAGUCUAGCAAUUUGCCAAUGUGUUUACCAAUCUGGGGGCUUGUUUUUCUUUUCUUCUUUCAAAUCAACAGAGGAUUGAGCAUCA | 0.506
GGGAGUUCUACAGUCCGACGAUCAAAGAGUGGAUAGAGUGUGCACAUGGAAUCGGUGGGACUCGGGCAGAAAAGGAGUGCAAGAUAGAGUUCGAUGACUUCGAAGAGUGCUUGCUUCGGUACAAAACGAUGAGGCGAAUGCAUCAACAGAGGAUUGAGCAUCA | 0.344
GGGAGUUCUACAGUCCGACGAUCUCAGGAACCCAGACAAAUAUGAAUGUAAAUGAAGUCAUUAGCAACAGAGCAAUUGAAAUGUUAGGAGGUGAACUUGGCAGCAAGAAGCCUGUGCAUCCCAAUGAUCAUGUUAACAAAAGCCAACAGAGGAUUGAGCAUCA | 0.388
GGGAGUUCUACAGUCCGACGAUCUAAAUUAGGGCUGCCGUCCGUUCUCACUCCCUGGGCUGCGGAAAGCCAGAAGAUUUUAUCUAGCUUAUACAAGGCUGCUGGUGUUCCCUCCCUCCCGCCACGAGGGUGUUUUUGGCUGCACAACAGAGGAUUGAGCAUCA | 0.437
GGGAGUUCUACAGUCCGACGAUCACACAAUAUGAGACCAACAGCAUGGACUUCAAAGUUGGGGCGGAUGGGACAGUCUUCGCCACCCGGGAGCUGCAGGUCCCCUCCGAGCAGGUGGCCUUCACGGUGACUGCAUGGGACAGCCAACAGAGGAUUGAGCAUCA | 0.396
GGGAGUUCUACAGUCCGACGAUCUUGGAAGGACCAGAGCCUAAUCAACUGAAACCAUUAGUCAUACAGGCUAUGCCCACCCUAAUAGAACUAAUGAAAGACCCCAGUGUAGUUGUUCGAGAUACAGCUGCGUGGACUGUGGGCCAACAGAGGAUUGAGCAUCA | 0.467
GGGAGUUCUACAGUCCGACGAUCUCUGAGGUACCACUGAAGAGACCUUAAAAGAAUCAUUUGAGGGCUCUGUUCGUGCAAGAAUAGUCACUGAUCGGGAAACUGGUUCUUCCAAAGGGUUUGGUUUUGUAAGACUUCAACGUGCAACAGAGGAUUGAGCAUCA | 0.24
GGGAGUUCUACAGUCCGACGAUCCUGGCCUGGCCCUCCCCAGGGGCCUCCUUUCGUAUAGUCACUGCUUCUGCAUCAGAUACUUUCAGCUCCAAGUCCUGACUGGGUGGGGCACCCAUUUCAGGCAGAAGUUGGUGCCCCCCUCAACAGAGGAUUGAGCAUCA | 0.2
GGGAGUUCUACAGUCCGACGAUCCAGCCUCAGAGCCCUGACUUCCUGGAUAUUACCAACCCUAAAGCGGUAUUAGAAAAUGCACUUAGGAACUUCGCCUGUCUGACGACUGGAGAUGUGAUUGCUAUCAACUACAAUGAGAAGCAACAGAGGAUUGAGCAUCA | 0.601

Study 4 — method: RNAcompete; molecule type: RNA; medium: in vitro; concentration: 20 nM; notes: 7-mer, probes averaged, single round; relative to: mean of 7-mers; direction: higher = stronger binding
Target: PABPC1L2, full length, GST fusion (mouse, UniProt A0ABA7IW68)
Residues (chain): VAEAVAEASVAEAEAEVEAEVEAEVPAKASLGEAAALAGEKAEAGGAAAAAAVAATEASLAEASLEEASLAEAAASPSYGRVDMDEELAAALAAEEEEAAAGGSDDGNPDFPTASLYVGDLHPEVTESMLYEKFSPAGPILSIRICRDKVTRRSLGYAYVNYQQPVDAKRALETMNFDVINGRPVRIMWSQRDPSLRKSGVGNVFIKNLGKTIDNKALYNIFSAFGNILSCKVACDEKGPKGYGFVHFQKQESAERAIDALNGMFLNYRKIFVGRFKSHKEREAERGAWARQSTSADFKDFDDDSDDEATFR
Sequence | 7-mer Z-score
AGAAAAG | 2.88
CUGUGCU | -0.238
AGUCAAC | -0.217
GGCAGGC | 0.303
UUCACGU | -0.351
CACCAAC | -0.128
UGAUCUC | -0.396
GGUCUUG | -0.128
GAGUCAU | -0.296
CCGAUUU | -0.146
ACCUUCU | -0.273
CAUCAUC | -0.298
GAUUGGG | 0.0823
UAACCAC | -0.11
UUCUGAG | -0.231
UGAGGUA | -0.119
GUGACAG | 0.135
GCGAUGC | -0.122
UCUAACG | -0.318
GGUGCGU | 0.0823
ACCGCGU | -0.17
UACAAGU | -0.0826
UUUUUGC | -0.175
GGGGCAA | 0.675
CGUUUGC | -0.537
